Published values pooled from the literature.
Parts stem from different laboratories: compare values within a part only.
Chain of UniProt P48431 (19-118, looked up): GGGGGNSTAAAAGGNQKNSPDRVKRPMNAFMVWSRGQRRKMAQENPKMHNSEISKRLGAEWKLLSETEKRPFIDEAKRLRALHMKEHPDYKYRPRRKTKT
Chain of UniProt P14921 (whole entry, unmodified, looked up): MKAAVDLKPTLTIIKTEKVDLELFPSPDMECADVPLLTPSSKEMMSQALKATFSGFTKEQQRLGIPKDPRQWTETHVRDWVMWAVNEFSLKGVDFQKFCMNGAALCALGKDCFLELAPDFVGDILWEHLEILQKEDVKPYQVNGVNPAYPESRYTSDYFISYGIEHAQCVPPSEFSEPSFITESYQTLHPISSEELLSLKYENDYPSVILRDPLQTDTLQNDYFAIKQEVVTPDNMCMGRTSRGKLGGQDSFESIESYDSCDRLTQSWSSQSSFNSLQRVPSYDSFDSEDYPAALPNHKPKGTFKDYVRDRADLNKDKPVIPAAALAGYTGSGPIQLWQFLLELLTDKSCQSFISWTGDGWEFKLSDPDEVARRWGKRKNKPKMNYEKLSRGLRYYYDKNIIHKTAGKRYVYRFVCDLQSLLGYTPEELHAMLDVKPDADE

Set 1 — organism: Vesicular stomatitis virus; effect on: pseudovirus infection; method: FDA-approved drug library screen; tested at: concentration not given; notes: SARS-CoV-2 spike pseudotype; relative to: vehicle; endpoint: GFP-positive cells
Cl.Cn1c(CCCC(=O)O)nc2cc(N(CCCl)CCCl)ccc21: 101%
COCCCOc1ccnc(CSc2nc3ccccc3[nH]2)c1C: 96.9%
CCN1CC(CCN2CCOCC2)C(c2ccccc2)(c2ccccc2)C1=O.Cl.O (centres unmarked): 128%

Set 2 — method: universal PBM; molecule type: double-stranded DNA, one strand shown; medium: in vitro; tested at: 600 nM; direction: higher = stronger binding; endpoint: E-score
Target: Sal-like protein 4, full length isoform A (SALL4, Homo sapiens, UniProt Q9UJQ4, residues 1-1053)
Chain of UniProt Q9UJQ4 (whole entry, looked up): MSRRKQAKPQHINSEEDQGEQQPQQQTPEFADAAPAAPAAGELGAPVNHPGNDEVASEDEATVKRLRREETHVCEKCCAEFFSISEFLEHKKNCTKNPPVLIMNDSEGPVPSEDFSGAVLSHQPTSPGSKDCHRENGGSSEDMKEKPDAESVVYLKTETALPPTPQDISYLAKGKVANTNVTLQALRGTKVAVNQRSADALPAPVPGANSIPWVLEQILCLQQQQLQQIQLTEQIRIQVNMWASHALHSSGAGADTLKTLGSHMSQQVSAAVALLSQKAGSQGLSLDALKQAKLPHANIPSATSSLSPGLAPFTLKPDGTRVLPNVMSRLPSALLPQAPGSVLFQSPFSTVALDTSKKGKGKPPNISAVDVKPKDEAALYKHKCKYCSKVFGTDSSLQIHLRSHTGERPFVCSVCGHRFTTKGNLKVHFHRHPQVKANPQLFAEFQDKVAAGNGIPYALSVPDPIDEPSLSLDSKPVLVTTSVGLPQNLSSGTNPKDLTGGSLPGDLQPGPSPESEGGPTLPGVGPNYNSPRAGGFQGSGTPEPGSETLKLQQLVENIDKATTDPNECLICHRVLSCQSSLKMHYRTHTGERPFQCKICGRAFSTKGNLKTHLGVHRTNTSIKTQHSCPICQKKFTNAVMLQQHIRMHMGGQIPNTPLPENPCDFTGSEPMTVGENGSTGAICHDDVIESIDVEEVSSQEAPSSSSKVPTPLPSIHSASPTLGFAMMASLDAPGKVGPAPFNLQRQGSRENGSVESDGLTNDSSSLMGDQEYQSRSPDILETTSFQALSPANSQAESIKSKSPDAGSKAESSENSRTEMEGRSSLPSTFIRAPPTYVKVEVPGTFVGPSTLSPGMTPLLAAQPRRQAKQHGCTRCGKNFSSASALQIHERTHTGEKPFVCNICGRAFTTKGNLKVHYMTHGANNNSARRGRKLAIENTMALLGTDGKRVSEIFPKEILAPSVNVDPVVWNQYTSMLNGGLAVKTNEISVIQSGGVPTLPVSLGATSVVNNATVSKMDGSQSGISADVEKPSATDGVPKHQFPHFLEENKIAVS
Notes: 8-mer, flanks averaged, mean of replicates
CTCGAGAG: -0.218
CCGTACTC: -0.188
CGCTCTGA: -0.222
AAGGAGGA: 0.0892
AATACCGC: -0.119
AGCCTTGG: -0.138
CCCGTTGA: -0.138
CCTGGATA: -0.112

Set 3 — mode: inhibitor; tested at: 20 µM; endpoint: inhibition
Target: Replicase polyprotein 1ab, nsp13 helicase (rep, Severe acute respiratory syndrome coronavirus 2, UniProt P0DTD1)
Cc1c(F)cc(C(=O)NC2CC2)cc1-c1ccc(C(=O)NCC(C)(C)C)cn1: 8.58%
N=C(CC(O)COc1ccccc1-c1ccccc1)N1CCCCC1 (centres unmarked): 4.02%
Oc1ccc2c3c1O[C@H]1c4oc5ccccc5c4C[C@@]4(O)[C@@H](C2)N(CC2CC2)CC[C@]314: -1.6%
COc1cc2nc(N3CCN(C(=O)C4CCCO4)CC3)nc(N)c2cc1OC (centres unmarked): 9.81%
CC(C)=CCC[C@](C)(O)[C@H]1CC[C@]2(C)[C@@H]1[C@H](O)C[C@@H]1[C@@]3(C)CC[C@H](O[C@@H]4O[C@H](CO)[C@@H](O)[C@H](O)[C@H]4O[C@@H]4O[C@H](CO)[C@@H](O)[C@H](O)[C@H]4O)C(C)(C)[C@@H]3CC[C@]12C: 1.18%
CCOC(=O)c1c2c3c(cccc3[nH]c1=O)C(=O)c1ccccc1-2: 7.85%
c1ccc(C2CN3CCSC3=N2)cc1 (centres unmarked): -0.06%
CC(C)c1cc(C(C)C)c(CC(=O)NS(=O)(=O)Oc2c(C(C)C)cccc2C(C)C)c(C(C)C)c1: 16.5%
C[C@@H](c1nc(-c2ccc(C#N)cc2)cs1)[C@](O)(Cn1cncn1)c1ccc(F)cc1F: 3.63%
Cc1nc2c(O)cccc2c(=O)[nH]1: -2.38%
CO[C@H]1C[C@@H]2CC[C@@H](C)[C@@](O)(O2)C(=O)C(=O)N2CCCC[C@H]2C(=O)O[C@H]([C@H](C)C[C@@H]2CC[C@@H](O)[C@H](OC)C2)CC(=O)[C@H](C)/C=C(\C)[C@@H](O)[C@@H](OC)C(=O)[C@H](C)C[C@H](C)/C=C/C=C/C=C/1C: 8.5%
C[N@+]12CCCC[C@@H]1CCC(=C(c1cccs1)c1cccs1)C2 (racemic): 2.68%
CCN1CCN(Cc2ccc(Nc3ncc(F)c(-c4cc(F)c5nc(C)n(C(C)C)c5c4)n3)nc2)CC1: 14.1%
C=CC(=O)Nc1cccc(C)c1Nc1ncc2cc(-c3c(Cl)c(OC)cc(OC)c3Cl)ccc2n1: -0.3%
Cc1cc(C)c(S(=O)(=O)Nc2ccccc2C(F)(F)F)c(C)c1: 9.08%
CCCCOc1ccc(C(=O)CCN2CCCCC2)cc1: 23.2%
Nc1nc(-c2ccc(Cl)c(Cl)c2)c(-c2ccncc2)s1: 23.6%
CN1c2c([nH]c(N)nc2=O)NC[C@@H]1CNc1ccc(C(=O)N[C@@H](CCC(=O)O)C(=O)O)cc1: -3.07%
Cc1c(C(=O)NN2CCCCC2)nn(-c2ccc(Cl)cc2Cl)c1-c1ccc(Cl)cc1: 5.87%
c1ccc2sc(SNC3CCCCC3)nc2c1: 5.92%
Nc1[nH]nc2nnc(-c3c(-c4ccccc4)nn4ccccc34)cc12: 0.27%
CNCCC=C1c2ccccc2CCc2ccccc21: 1.69%
COc1ccc(Nc2ccn(-c3ccccc3)n2)cc1: -3.51%
CC(=O)Nc1nc2c(Oc3cc(-c4ccc(C(F)(F)F)cc4)ncn3)cccc2s1: -0.11%
CCC(CC)(CC(=O)Nc1cccc(/C=C/c2nc(C3CCC3)cs2)c1)C(=O)O: 3.56%

Set 4 — method: RNA Bind-n-Seq; molecule type: RNA; medium: in vitro; tested at: 365 nM; relative to: no-protein control; direction: higher = stronger binding; endpoint: RBNS enrichment (R)
Target: RNA binding protein fox-1 homolog 2, RRM domain, GST-SBP tag (RBFOX2, Homo sapiens, UniProt O43251-10, residues 100-194)
Notes: natural RNA segment, single round, ends assumed
Shared flanks, not repeated: GGGAGUUCUACAGUCCGACGAUC … UGGAAUUCUCGGGUGCCAA
Residues (chain): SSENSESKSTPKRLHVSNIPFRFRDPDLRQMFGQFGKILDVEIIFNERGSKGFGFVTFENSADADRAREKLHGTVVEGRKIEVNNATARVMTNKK
UAUGGAUGCAAGCAGGAGAAGCUCAACACCCUGCCUCUUGCCAAGACAAGGAAGCCUCACCUGGCUUUGACCUGCCAUCCGUUGCUGAGGCCACUGGCUUCCAUCCUAAG: 0.284
UCCACAACCCUGGUGUAAUACAGAGUCCAGCCAUUACCAUUCUCCUGCGUUACUUUGACAUGGGAUUUUUUUUUUUUUUUGUACAUUUUGGCUGCAGUAUUGGUGGUAGA: 0.496
UAAGGGUAAAGUUUCACAGCUGACAUUAGCCUGAGGAUUAGCACUAAAGAGCUGUGUUUUCAUAGCAGGGGCUAUUGUACAGACAGUGAUAACCAAAUAGUAAUAUGCCA: 0.433
GACUCCAUAGAUUUGAAUUCUUUUCCGUAUGUGGGGAUGGUUGCUACUACCUCACCGCCAAGUCCUCCCCCAGCUGUUACCACAUGAGGGAAUACAAGGUGCUAGGUACC: 0.246
CCUGGAUGGCUUCUCUUGUCCACCCGAUCUCCCGUGUUACCAAUGUGUAUGGUCUCCUUCUCCCGAAAGUGUACUUAAUCUUUGCUUUCUUUGCACAAUGUCUUUGGUUG: 0.833
GAGGUUUCUCUGCCUAGCCAUAGCAUCAUUAAUAGAUGUCCAAAAAUGAGCAAUUCUGGGAAUCACGCAGUGGGUUUUAAGGUAGUUAAUAUCUAUGGUAUAUUAAAAGG: 0.334
GAGAUCAGGAUUCCACUGACGUCCUGGGCAGCCAGUGAAUUUAAUUUUCCAUGAGAAACAACAGAGUUAACCUGUGGCAUUAGGAGACCUACUUCAUGUGGACCCUUUUU: 0.319
GAAUUCAGAUCUCAAUAUUAGGGAGAGUUCUCCUUUGAGCAACUCCUUUGCUUUCACACAGCAUAGCUUAUAAUUUGAUUAUGUUUCCUUCUUCAUGGGAAAUGUUAAAA: 0.367

Set 5 — effect on: enzyme activity; mode: inhibitor; tested at: 20 µM; notes: primary screen; endpoint: inhibition
Target: Replicase polyprotein 1ab, main protease (rep, Severe acute respiratory syndrome coronavirus 2, UniProt P0DTD1)
Cc1sc(N)c(C(=O)c2cccc(C(F)(F)F)c2)c1C: 53.6%
NC(CN(O)N=O)C(=O)O (centres unmarked): 21%
CC1=NN(c2ccc(C)c(C)c2)C(=O)/C1=N/Nc1cccc(-c2cccc(C(=O)O)c2)c1O: 27.4%
Cc1nc(=O)c2c([nH]1)CCSC2: 68.1%
O=S(=O)(/N=C/c1c(O)ccc2ccccc12)c1cccs1: 57.7%

Further values, each from its own experiment — method: protein-binding microarray; molecule type: double-stranded DNA, one strand shown; medium: in vitro; tested at: not given; direction: higher = stronger binding
Notes: k-mer, scored over probes, only values ≥0.25
TBP1: TATA-box-binding protein 1 (TBP1, Arabidopsis thaliana, UniProt P28147, residues 1-200, full length assumed)
Chain of UniProt P28147 (whole entry, looked up): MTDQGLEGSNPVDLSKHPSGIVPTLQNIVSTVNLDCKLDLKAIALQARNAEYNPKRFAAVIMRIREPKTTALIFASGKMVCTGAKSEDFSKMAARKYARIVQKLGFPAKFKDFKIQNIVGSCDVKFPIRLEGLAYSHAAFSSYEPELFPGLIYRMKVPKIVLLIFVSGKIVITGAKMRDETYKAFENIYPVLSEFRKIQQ
ACAATAT
E-score (TBP1): 0.337

ACAACAA
E-score (Transcription factor SOX-2, HMG box (SOX2, Homo sapiens, UniProt P48431, residues 19-118)): 0.373

GCCGGATA
E-score (Protein C-ets-1 (ETS1, Homo sapiens, UniProt P14921, residues 1-441, K379A, full length assumed)): 0.274

CTAATTA
E-score (TBP1): 0.282

Some of these lines once more (set 5):
Cc1sc(N)c(C(=O)c2cccc(C(F)(F)F)c2)c1C: 53.6%
NC(CN(O)N=O)C(=O)O (centres unmarked): 21%
CC1=NN(c2ccc(C)c(C)c2)C(=O)/C1=N/Nc1cccc(-c2cccc(C(=O)O)c2)c1O: 27.4%
Cc1nc(=O)c2c([nH]1)CCSC2: 68.1%
O=S(=O)(/N=C/c1c(O)ccc2ccccc12)c1cccs1: 57.7%
